Measured values gathered from unrelated publications.
Every numbered part comes from another study and shows a few of its results, in no order.

Set 1
Target: Interferon regulatory factor 5, full length, phosphomimetic (IRF5, Homo sapiens, UniProt Q13568-2, residues 1-514, S451D/S453D/S456D/S462D)
Method: protein-binding microarray
Molecule type: double-stranded DNA, one strand shown
Sample: in vitro
Tested at: 940 nM top
Setting: 60-bp whole probe
Together with: salmon DNA 0.4 mg/ml
Relative to: random background probes
Direction: higher = stronger binding
Quantity: fitted relative affinity
All sequences stand within: GCCTAGCAC … GTCTTGATTCGCTTGACGCTGCTG
Sequence = GACGGTTTGGGGACTGGGGACGTGCTA; result = 0.501 z-score
Sequence = TTAGGTATCGACTTTCGGTTAGTGCTA; result = 5.9 z-score
Sequence = TTAGATCTCTGTCTCGATTAGTGCTAG; result = 1.91 z-score
Sequence = TCAGGTTTCGACACTGGGTTAGTGCTA; result = 7.06 z-score
Sequence = TCAGTTTGCCCTATTTAACTGTGCTAG; result = 0.272 z-score
Sequence = GACGGTCTCCTTATCCTGACGTGCTAG; result = 0.754 z-score
Sequence = TTAGGACTGGGTTTCGGTTGGTGCTAG; result = 6.52 z-score
Sequence = TAGTTTATACTCTAGATGATGTGCTAG; result = -0.262 z-score
Sequence = AGGACTCTGGAGGTTGAGAAAGTGCTA; result = -0.651 z-score
Sequence = TTTGCTTTCTTTATGCACTCGTGCTAG; result = 1.3 z-score
Sequence = TTACGTCTCGGTCTCGGTTAGTGCTAG; result = 6.23 z-score
Sequence = TCCACTTGTCTTTTCACTTTGTGCTAG; result = 1.41 z-score
Sequence = TTCTATGTCTGTTTTTGCTTGTGCTAG; result = 0.769 z-score
Sequence = TTAGGACTGCTACTGCTTTAGTGCTAG; result = -0.372 z-score
Sequence = TTAGGTATCGGTTTCGGTTAGTGCTAG; result = 13 z-score
Sequence = GTCGGTCTCGGTATCGGGACGTGCTAG; result = 6.87 z-score
Sequence = TCAGCCATCAATATCTGACTGTGCTAG; result = -0.219 z-score
Sequence = TTAGGTCTCCTACTCCTTTAGTGCTAG; result = 0.418 z-score
Sequence = GACGGTTTCGACTATCAGGACGTGCTA; result = 8.17 z-score

Set 2
Target: RNA binding protein fox-1 homolog 2, RRM domain, GST-SBP tag (RBFOX2, Homo sapiens, UniProt O43251-10, residues 100-194)
Method: RNA Bind-n-Seq
Molecule type: RNA
Sample: in vitro
Tested at: 365 nM
Setting: natural RNA segment, single round, ends assumed
Relative to: no-protein control
Direction: higher = stronger binding
Quantity: RBNS enrichment (R)
All sequences stand within: GGGAGUUCUACAGUCCGACGAUC … UGGAAUUCUCGGGUGCCAA
Target sequence (chain): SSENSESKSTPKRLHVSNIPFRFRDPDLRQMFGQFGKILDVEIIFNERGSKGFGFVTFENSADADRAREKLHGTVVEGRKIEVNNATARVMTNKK
Sequence = UUCACCUUACAUUCUGGAUGCAUUCAGAUCUCGGACGUCCUUAAGUGAAAUGAAUAUACAUGUCUAUGGACUUAAUAUCAUGCCCAGAUAUGAAGACCUCGUUCAACUUU; result = 0.426
Sequence = UGAAAUAAUAGAGCGAGCACCCAUUCCAAAGCUUUAUUACCAGUGACGUUGUUGCAUGUUUGAAAUUCGGUCUGUUUAAAGUGGCAGUCAUGUAUGUGGUUUGGAGGCAG; result = 23.3
Sequence = UUAUCCUGUCUUUGGGGGCAAUGUGUCAAAAGUCCCCUCAGGAAUUUUCAGAGGAAAGAACAUUUUAUGAGGCUUUCUCUAAAGUUUCCUUUGUAUAGGAGUAUGCUCAC; result = 0.504
Sequence = UGUUCCUUUCACAAGCAAGCCUUAAAAAAAGAGAAAAAGAAAAAAAAAAGACAACUUCCUUUCUCUUCAGACCCCCACACCCACUUUUCUUAGCAGACGGCAGUCAAUCC; result = 0.504
Sequence = AGAGUUGGAAAUAACCCUUUAACAUCAACAUGCUUCAAAGACUUUUUGCCUUUGGCCUAGUAAGAUGCCUCUCCAGCUACUGAGCCCACAAGUAACAUGAGCGGAUAAAA; result = 0.236
Sequence = UAGAAACCAAAUGGUGUAAAUAUUUUAUUUGAUAAAGAUAGUUGAUGGUUUAUUUUAAAAGAUGCACUUUGAGUUGCAAUAUGUUAUUUUUAUAUGGGCCAAAAACAAAA; result = 0.593
Sequence = ACACAGCAGGUGUGAGAUGUCAUCUUGGAAGACAGGCCUUGCAGAAAUAGGCCUACAUCCAAAAUAUUAUCUUGUGACUCCAUGAACCAUUCAUUAACCCUUUGUAUCUU; result = 0.561
Sequence = GCUUCUAGAAGACUGACUGUGGAUUAGCUUAGUGUACAGACUUUAAACAGCUGCUCCCUCAGCUCAGAGUAGGUUCCAUAUCCUUUUUUUUUGUUUUGUUUUAAUGGCUC; result = 1.72

Set 3
Target: Ras GTPase-activating protein-binding protein 1, C-terminal RGG region (G3BP1, Homo sapiens, UniProt Q13283)
Sequence of UniProt Q13283 (whole entry, looked up): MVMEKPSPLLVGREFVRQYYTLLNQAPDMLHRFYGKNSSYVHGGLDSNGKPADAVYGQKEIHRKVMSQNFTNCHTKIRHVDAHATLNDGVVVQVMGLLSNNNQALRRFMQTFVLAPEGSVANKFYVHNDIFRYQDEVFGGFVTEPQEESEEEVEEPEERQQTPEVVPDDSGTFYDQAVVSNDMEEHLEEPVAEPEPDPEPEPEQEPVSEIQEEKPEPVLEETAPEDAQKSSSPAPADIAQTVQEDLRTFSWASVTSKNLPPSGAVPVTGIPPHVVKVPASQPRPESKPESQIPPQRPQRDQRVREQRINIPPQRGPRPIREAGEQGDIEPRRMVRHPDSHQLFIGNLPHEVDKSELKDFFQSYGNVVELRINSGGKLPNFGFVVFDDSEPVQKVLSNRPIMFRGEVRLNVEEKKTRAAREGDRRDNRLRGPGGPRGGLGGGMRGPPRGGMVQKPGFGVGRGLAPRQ
Method: RNA Bind-n-Seq
Molecule type: RNA
Sample: in vitro
Tested at: 1 µM
Setting: whole 134-nt RNA, ends assumed
Together with: 150 mM KCl
Relative to: input library
Direction: higher = stronger binding
Quantity: log2 enrichment
All sequences stand within: GGGAGUUCUACAGUCCGACGAUC … UGGAAUUCUCGGGUGUCAAGG
Sequence = CCUGUGCUACACAUCGUAUGUACCGAAUCGGGAAAAAAAGGGUUUUUGGGUUUUUUUGGGAAAGUAUUAUGUUACGCCGUUCGGAUCUGC; result = -1.69
Sequence = GCAGGAAGUAAAAACAAAUGGAAAUGCUUCGGAUAGUGGCAGGGGUGGGAGUUGCUAAGGAAAGGGUGGGAUGGGAGUGGGUAAAGAGUU; result = 2.54
Sequence = CUCAAGUCCUGUGCUACACAUCGUAUGUACCGAAUCGGAGGUUUUUUUGGUGGAAAGUAUUAUGUUACGCCGUUCGGAUCUGCACUUCCA; result = -1.22
Sequence = CCUGUGCUACACAUCGUAUGUACCGAAUCGGGGUUUUUUUGGGGAAAAAAAGGGGUGGGGAAAGUAUUAUGUUACGCCGUUCGGAUCUGC; result = 0.105
Sequence = ACCAUGCAGGUGGGCAUCUUUGGGAAGUGGGGCAAGGGGGGGAUAGGGAGGGGGGUAACACUUUGGGAACACGUGGUCCCAGGUCGUUUC; result = 2.9
Sequence = AAGUCCUGUGCUACACAUCGUAUGUACCGAAUCGGGGAAAGGGGAAAGGGAAAGGGAAAGUAUUAUGUUACGCCGUUCGGAUCUGCACUU; result = 1.13
Sequence = UGGGAGGUGGAUUUUGUUUAUUUUUUUAGCUCAUUUCGAGGGGUGGGAAUUUUUUUUUAAUAUGUGUCAUGAAUAAAGUUGUUUUUGAAA; result = 3.73
Sequence = AAGUCCUGUGCUACACAUCGUAUGUACCGAAUCGGGGUUUGGGGAAAGGGGUGGGGAAAGUAUUAUGUUACGCCGUUCGGAUCUGCACUU; result = 2.7
Sequence = CACAGACAACACGCACCCACACAGACACAGAGGGAAGGGGAAAGGAUGGGGACAGGGUGCACAGCAGGGCGGGGUAGGACCCCAGCCCCU; result = -0.296

Set 4
Target: Histone acetyltransferase KAT6A, winged helix 1, GST fusion (KAT6A, Homo sapiens, UniProt Q92794, residues 1-85)
Method: protein binding microarray
Molecule type: double-stranded DNA, one strand shown
Sample: in vitro
Tested at: not given
Setting: 8-mer, flanks averaged, mean of 2 arrays, mostly near background
Relative to: not given
Direction: higher = stronger binding
Quantity: E-score
Residues (chain): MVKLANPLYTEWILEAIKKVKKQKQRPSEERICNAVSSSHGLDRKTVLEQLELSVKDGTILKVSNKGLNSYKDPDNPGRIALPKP
Sequence = CGGCACCA; result = 0.223
Sequence = ATGCCTCC; result = 0.0725
Sequence = AACTGTCC; result = -0.179
Sequence = CGCTACAA; result = 0.123
Sequence = CCACAATA; result = -0.114
Sequence = GCTCCCCC; result = 0.113
Sequence = GCTGTGTA; result = 0.043
Sequence = CACGAAAG; result = 0.0426
Sequence = CCGCAACC; result = 0.127
Sequence = CCGAACTC; result = -0.268
Sequence = GACAGAAA; result = -0.134
Sequence = AAAGTAGA; result = -0.301
Sequence = AGCGAATA; result = -0.115
Sequence = ACTCCCTG; result = -0.296
Sequence = AGGCAACA; result = -0.188
Sequence = ACTTGACT; result = -0.32
Sequence = ACTTTAGC; result = -0.0637
Sequence = TAGTGTGA; result = -0.148
Sequence = ATCCAAGA; result = -0.269
Sequence = CGCTGGCC; result = 0.29
Sequence = TAAAAAGA; result = -0.15
Sequence = ATGCTATG; result = -0.134
Sequence = GTAGCACA; result = 0.0335
Sequence = CGATCCGC; result = 0.246
Sequence = GAAGCGGA; result = 0.129

Excerpt of the above (set 1):
Sequence = TCAGGTTTCGACACTGGGTTAGTGCTA; result = 7.06 z-score
Sequence = TCAGTTTGCCCTATTTAACTGTGCTAG; result = 0.272 z-score
Sequence = TTAGGACTGGGTTTCGGTTGGTGCTAG; result = 6.52 z-score
Sequence = GACGGTTTCGACTATCAGGACGTGCTA; result = 8.17 z-score
